Results from different studies.
Each line is one published result; not all experiments were run side by side. “And” joins repeats or separate records; there may be more than shown. ± gives the spread as reported.

SMILES	cell line	assay	test system	conditions	scale	quantity	result
CC[C@H](C)[C@H](NC(=O)CN)C(=O)NCC(=O)N[C@@H](CCCCN)C(=O)N[C@@H](Cc1ccccc1)C(=O)N[C@@H](CC(C)C)C(=O)N[C@@H](CCCCN)C(=O)N[C@@H](CCCCN)C(=O)N[C@@H](C)C(=O)N[C@@H](CCCCN)C(=O)N[C@@H](CCCCN)C(=O)N[C@@H](Cc1ccccc1)C(=O)NCC(=O)N[C@@H](CCCCN)C(=O)N[C@@H](C)C(=O)N[C@@H](Cc1ccccc1)C(=O)N[C@H](C(=O)N[C@@H](CCCCN)C(=O)N[C@H](C(=O)N[C@@H](CC(C)C)C(=O)N[C@@H](CCCCN)C(=O)N[C@@H](CCCCN)C(N)=O)[C@@H](C)CC)C(C)C	rat erythrocytes			200 µM, 60 min, 37 °C		hemolysis	13.5 ± 1.8%
Cc1cc2c(c(O)c1O)C(=O)c1c(O)cc(O)cc1C2=O	HK-2 co-cultured with HepaRG	MTT		16.67 µM, 24 h	baseline: untreated control	cell viability	90.1 ± 7.39%
C[C@@H](O)[C@H](NC(=O)CNC(=O)CNC(=O)CNC(=O)c1ccc2c(c1)C(=O)OC21c2ccc(O)cc2Oc2cc(O)ccc21)C(=O)N[C@@H](Cc1ccccc1)C(=O)N[C@@H](Cc1ccccc1)C(=O)N[C@@H](Cc1ccc(O)cc1)C(=O)NCC(=O)NCC(=O)N[C@@H](CO)C(=O)N[C@@H](CCCNC(=N)N)C(=O)NCC(=O)N[C@@H](CCCCN)C(=O)N[C@@H](CCCNC(=N)N)C(=O)N[C@@H](CC(N)=O)C(=O)N[C@@H](CC(N)=O)C(=O)N[C@@H](Cc1ccccc1)C(=O)N[C@@H](CCCCN)C(=O)N[C@H](C(=O)N[C@@H](CCC(=O)O)C(=O)N[C@@H](CCC(=O)O)C(=O)N[C@@H](Cc1ccc(O)cc1)C(N)=O)[C@@H](C)O	hCMEC/D3 monolayers	BBB permeability, Transwell, item: CF-labelled compound	EGM-2 medium	concentration not given, 2 h, apical to basal	baseline: fluorescence added apically	transport ratio	11%
Oc1ccc(C(c2ccc(O)cc2)(C(F)(F)F)C(F)(F)F)cc1	HepG2 spheroids, dissociated	annexin V-FITC/PI flow cytometry		0.01 µM, 96 h		early apoptotic cells	4.41 ± 3.07%
CC[C@H](C)[C@H](NC(=O)[C@H](CCCCN)NC(=O)[C@H](CCC(N)=O)NC(=O)[C@@H](NC(=O)[C@@H](NC(=O)[C@H](CCCCN)NC(=O)[C@H](CCCNC(=N)N)NC(=O)[C@H](Cc1ccccc1)NC(=O)CN)[C@@H](C)CC)C(C)C)C(=O)N[C@@H](CCCNC(=N)N)C(=O)N[C@@H](CC(=O)O)C(=O)N[C@@H](Cc1ccccc1)C(=O)N[C@@H](CC(C)C)C(=O)N[C@@H](CCCNC(=N)N)C(=O)N[C@@H](CC(N)=O)C(=O)N[C@@H](CC(C)C)C(=O)N[C@H](C(N)=O)C(C)C	HaCaT	cell viability, MTS		1 h, 37 °C, 10% FBS		LC50	60 µM
O=C(O)C(F)(F)C(F)(F)C(F)(F)F	hTERT-RPTEC-OAT1			concentration not given, 96-well plate		LDH release	6.74 mU/mL and 6.29 mU/mL and 3.58 mU/mL and 4.49 mU/mL
CC[C@H](C)[C@H](NC(=O)[C@H](C)NC(=O)[C@H](Cc1c[nH]cn1)NC(=O)CNC(=O)CNC(=O)CNC(=O)c1ccc2c(c1)C(=O)OC21c2ccc(O)cc2Oc2cc(O)ccc21)C(=O)N[C@@H](Cc1ccc(O)cc1)C(=O)N1CCC[C@H]1C(=O)N[C@@H](CCCNC(=N)N)C(=O)N[C@@H](Cc1c[nH]cn1)C(N)=O	hCMEC/D3 monolayers	BBB permeability, Transwell, item: CF-labelled compound	EGM-2 medium	concentration not given, 1 h, apical to basal	baseline: fluorescence added apically	transport ratio	4.2%
CC[C@H](C)[C@H](NC(=O)[C@H](CCCNC(=N)N)NC(=O)[C@@H]1CCCN1C(=O)[C@H](CCCNC(=N)N)NC(=O)[C@@H](N)CCCNC(=N)N)C(=O)N[C@@H](Cc1c[nH]cn1)C(=O)N[C@@H](Cc1ccccc1)C(=O)N[C@@H](CCCNC(=N)N)C(=O)N[C@@H](Cc1ccccc1)C(=O)N1CCC[C@H]1C(=O)N[C@@H](CC(N)=O)C(=O)N[C@@H](CCCNC(=N)N)C(=O)N1CCC[C@H]1C(=O)N[C@@H](Cc1ccccc1)C(=O)N[C@H](C(=O)N1CCC[C@H]1C(=O)N[C@@H](CO)C(=O)N[C@@H](CCCNC(=N)N)C(=O)N[C@@H](CS)C(=O)N[C@@H](CC(N)=O)C(=O)N[C@@H](Cc1c[nH]cn1)C(=O)N[C@@H](CCCNC(=N)N)C(=O)N[C@@H](Cc1ccccc1)C(=O)N1CCC[C@H]1C(=O)N[C@@H](Cc1ccccc1)C(=O)N[C@@H](CCC(N)=O)C(=O)N1CCC[C@H]1C(=O)N[C@@H](Cc1ccccc1)C(=O)N[C@@H](Cc1ccc(O)cc1)C(=O)N[C@@H](Cc1c[nH]c2ccccc12)C(=O)N1CCC[C@H]1C(=O)N[C@@H](Cc1c[nH]cn1)C(=O)N[C@@H](CCCNC(=N)N)C(=O)N[C@@H](Cc1ccc(O)cc1)C(=O)N[C@@H](CC(C)C)C(=O)N[C@H](C(=O)N[C@@H](Cc1ccc(O)cc1)C(=O)N[C@@H](CCCNC(=N)N)C(=O)N[C@@H](Cc1ccc(O)cc1)C(=O)N[C@@H](Cc1ccccc1)C(=O)N1CCC[C@H]1C(=O)N[C@@H](CCCNC(=N)N)C(=O)N[C@@H](CCCNC(=N)N)C(=O)N[C@@H](CCCNC(=N)N)C(=O)N[C@@H](CC(C)C)C(=O)N[C@@H](CCC(N)=O)C(=O)N[C@@H](CCCNC(=N)N)C(=O)O)[C@@H](C)O)C(C)C	HaCaT	cell viability, MTT				CC50	50.2 µM
CC(=O)OC[C@H]1O[C@@H](Oc2cc(O)cc3cc4oc(C)cc(=O)c4c(O)c23)[C@H](O)[C@@H](O)[C@@H]1O	HepaRG co-cultured with HK-2	MTT		133.33 µM, 24 h	baseline: untreated control	cell viability	105 ± 10.7%
CC[C@H](C)[C@H](NC(=O)[C@H](C)NC(=O)[C@H](CO)NC(=O)[C@@H](NC(=O)[C@H](CCCCN)NC(=O)[C@H](CCSC)NC(=O)[C@H](CC(C)C)NC(=O)[C@H](CO)NC(=O)[C@H](CC(C)C)NC(=O)[C@@H](N)CCCNC(=N)N)[C@@H](C)O)C(=O)N[C@@H](CCCCN)C(=O)N[C@@H](CCCCN)C(=O)N[C@H](C(=O)N[C@@H](CCCNC(=N)N)C(=O)N[C@@H](CC(N)=O)C(=O)N1CCC[C@H]1C(=O)N[C@@H](CCCCN)C(=O)NCC(=O)N1CCC[C@H]1C(=O)N[C@@H](CC(C)C)C(=O)N[C@H](C(=O)N[C@@H](CC(C)C)C(=O)N[C@@H](CCCNC(=N)N)C(=O)N[C@@H](CC(C)C)C(=O)NCC(=O)N[C@@H](C)C(=O)N[C@@H](C)C(=O)N1CCC[C@H]1C(=O)N[C@H](C(=O)N[C@H](C(=O)N[C@@H](CCC(N)=O)C(=O)N1CCC[C@H]1C(=O)N[C@H](C(=O)N[C@@H](CCCNC(=N)N)C(=O)N[C@@H](CCCNC(=N)N)C(=O)N[C@H](C(=O)N[C@@H](Cc1ccccc1)C(=O)N1CCC[C@H]1C(=O)N[C@@H](CCCNC(=N)N)C(=O)O)C(C)C)[C@@H](C)O)[C@@H](C)O)C(C)C)[C@@H](C)CC)[C@@H](C)CC	HaCaT	cell viability, MTT				CC50	220 µM
CC1=C(O)C(=O)C=C2C1=CC=C1[C@@]2(C)CC[C@@]2(C)[C@@H]3C[C@](C)(C(=O)O)CC[C@]3(C)CC[C@]12C	COS-7			10 µM, 24 h, 0.1% DMSO, unit not given	baseline: vehicle control	apoptotic cells	3.4 ± 2.45
O=C1c2ccccc2C(=O)c2ccccc21	HepaRG co-cultured with HK-2	MTT		16.67 µM, 24 h	baseline: untreated control	cell viability	85.5 ± 10.6%
CS(=O)(=O)CCNCc1ccc(-c2ccc3ncnc(Nc4ccc(OCc5cccc(F)c5)c(Cl)c4)c3c2)o1	MRC-5, mock-infected	nuclei count		96 h		LD50	20.3 µM
O=c1ccc2ccccc2o1	NHEK	oxygen consumption rate, Seahorse		24 h		point of departure	382 µM
COc1ccc2c(c1OC)C(=O)c1c(cc(C)c(O)c1OC)C2=O	HepaRG co-cultured with HK-2	MTT		133.33 µM, 24 h	baseline: untreated control	cell viability	77.5 ± 13.2%
Cc1cc(C(C)(C)c2ccc(O)c(C)c2)ccc1O	HepG2 spheroids, dissociated	annexin V-FITC/PI flow cytometry		0.1 µM, 24 h		late apoptotic cells	12.5 ± 1.7%
O=S(=O)(O)C(F)(F)C(F)(F)C(F)(F)C(F)(F)C(F)(F)C(F)(F)C(F)(F)C(F)(F)F	hTERT-RPTEC-OAT1			concentration not given, Transwell, apical-to-basolateral addition		LDH release	70.2 mU/mL and 15.9 mU/mL and 72.6 mU/mL and 11.5 mU/mL
CN(Cc1cnc2nc(N)nc(N)c2n1)c1ccc(C(=O)N[C@@H](CCC(=O)O)C(=O)O)cc1	WA09 MTHFR C677T(+/-) forebrain rosette tissues	single rosette emergence		7 days		LOAEL	0.5 µM
O=S(=O)(O)C(F)(F)C(F)(F)C(F)(F)C(F)(F)F	hTERT-RPTEC-OAT1			concentration not given, 96-well plate		LDH release	4.99 mU/mL and 4.59 mU/mL and 4.79 mU/mL and 5.25 mU/mL
Nc1ccn(C[C@@H](CO)OCP(=O)(O)O)c(=O)n1.O.O	HEL	cell morphology				minimal cytotoxic concentration	> 250 µM
O=C(O)Cc1ccccc1Nc1c(Cl)cccc1Cl	3D spheroids			2 days		cytotoxic concentration	100 µM
CC(=O)NCC(=O)N[C@@H](Cc1ccccc1)C(=O)N[C@H](C=O)Cc1c[nH]cn1	HEL	cell morphology				minimum cytotoxic concentration	> 100 µM
C#CCCC[C@H]1OC(=O)[C@H](C(C)C)N(C)C(=O)[C@@H]2CCCN2C(=O)[C@H]([C@@H](C)CC)OC(=O)[C@H]([C@@H](C)CC)N(C)C(=O)[C@H]([C@@H](C)CC)NC(=O)[C@H]1C	HEK293	resazurin reduction		30 µM, 24 h		cytotoxicity	not toxic
CC(c1ccccc1)(c1ccc(O)cc1)c1ccc(O)cc1	HepG2 spheroids, dissociated	annexin V-FITC/PI flow cytometry		1 µM, 24 h		viable cells	70.5 ± 9.47%
CCc1cccc(C)c1N(C(=O)CCl)C(C)COC (stereo not drawn)	MCF7 AREc32 cells	cell confluency, IncuCyte imaging		24 h, nominal concentration		IC10	135 µM
NCC(=O)Nc1ccc(-n2nc(C(F)(F)F)cc2-c2ccc3c(ccc4ccccc43)c2)cc1	HEK-293T	MTT		8 h		highest non-cytotoxic concentration	< 3 µM
CN(N=O)[C@H]1CC[C@@H](c2ccc(Cl)c(Cl)c2)c2ccccc21	TK6 expressing CYP2B6			0.08 µM, 4 h, without S9	baseline: vehicle	relative survival	26.6%

Some of these lines once more:
SMILES	cell line	assay	test system	conditions	scale	quantity	result
C#CCCC[C@H]1OC(=O)[C@H](C(C)C)N(C)C(=O)[C@@H]2CCCN2C(=O)[C@H]([C@@H](C)CC)OC(=O)[C@H]([C@@H](C)CC)N(C)C(=O)[C@H]([C@@H](C)CC)NC(=O)[C@H]1C	HEK293	resazurin reduction		30 µM, 24 h		cytotoxicity	not toxic
O=C1c2ccccc2C(=O)c2ccccc21	HepaRG co-cultured with HK-2	MTT		16.67 µM, 24 h	baseline: untreated control	cell viability	85.5 ± 10.6%
Oc1ccc(C(c2ccc(O)cc2)(C(F)(F)F)C(F)(F)F)cc1	HepG2 spheroids, dissociated	annexin V-FITC/PI flow cytometry		0.01 µM, 96 h		early apoptotic cells	4.41 ± 3.07%
